{"data": "Published values collected from several papers", "spsB": "Signal peptidase IB (spsB, Staphylococcus aureus, UniProt Q5HHB9)", "TRPM8": "Transient receptor potential cation channel subfamily M member 8 (TRPM8, Homo sapiens, UniProt Q7Z2W7)", "LCK": "Tyrosine-protein kinase Lck (LCK, Homo sapiens, UniProt P06239)", "CAMKK2": "Calcium/calmodulin-dependent protein kinase kinase 2 (CAMKK2, Homo sapiens, UniProt Q96RR4)", "MYLK2": "Myosin light chain kinase 2, skeletal/cardiac muscle (MYLK2, Homo sapiens, UniProt Q9H1R3)", "note": "Each line is one published result; not all experiments were run side by side. ± gives the spread as reported."}
{"SMILES": "Cc1cccc(C)c1NC(=O)Nc1ccc(Cl)c(C(F)(F)F)c1", "target": "spsB", "test": "peptidase activity, activator, FRET peptide cleavage", "system": "Staphylococcus aureus, membranes", "conditions": "10 µM", "how to read": "relative to: DMSO", "remaining activity [%]": 117}
{"SMILES": "O=C1Nc2ccc(Cl)cc2C1=Cc1cc(Cl)c(O)c(Cl)c1", "target": "TRPM8", "test": "antagonist", "system": "HEK293", "conditions": "5 µM", "how to read": "relative to: control", "remaining activity [%]": "91.5 ± 4.69"}
{"SMILES": "CC#CC(=O)N1CCC[C@H]1c1nc(-c2ccc(C(=O)Nc3ccccn3)cc2)c2c(N)nccn12", "target": "LCK", "test": "kinase activity, inhibitor, HotSpot radiometric", "conditions": "100 nM, together with: ATP 10 µM", "remaining activity [%]": "97.25 ± 0.8"}
{"SMILES": "CCOc1cc2ncnc(Nc3cccc(Br)c3)c2cc1OCC", "target": "TRPM8", "test": "antagonist", "system": "HEK293", "conditions": "5 µM", "how to read": "relative to: control", "remaining activity [%]": "105 ± 1.14"}
{"SMILES": "C[C@@H](Oc1ccc(S(C)(=O)=O)cc1C(=O)N1C[C@@H]2C[C@]2(c2cc(C(F)(F)F)on2)C1)C(F)(F)F", "target": "SLC6A9 (Homo sapiens, UniProt P48067)", "test": "glycine uptake, inhibitor, [3H]glycine uptake", "conditions": "0.003 µM, log concentration 3, together with: [3H]glycine, 3.5 mg/mL methyl-β-cyclodextrin", "how to read": "relative to: no inhibitor", "remaining activity [%]": 17.1}
{"SMILES": "NC/C(=C\\F)COc1cccc(Cn2c(=S)[nH]c(=O)c3[nH]cnc32)c1", "target": "Peroxidasin homolog (PXDN, Homo sapiens, UniProt Q92626)", "test": "Amplex UltraRed", "conditions": "30 µM, mean of replicates", "how to read": "relative to: control", "remaining activity [%]": 15.6}
{"SMILES": "O=C1NC(=O)/C(=C/c2ccc(-c3ccc(F)cc3O)o2)S1", "target": "CAMKK2", "test": "enzyme activity", "conditions": "10 µM", "remaining activity [%]": 51}
{"SMILES": "Nc1nc(Nc2ccc(S(N)(=O)=O)cc2)nn1C(=O)c1c(F)cccc1F", "target": "TRPM8", "test": "antagonist", "system": "HEK293", "conditions": "5 µM", "how to read": "relative to: control", "remaining activity [%]": "107 ± 5.82"}
{"SMILES": "Cc1cc(Nc2cc(N3CCN(C)CC3)nc(Sc3ccc(NC(=O)C4CC4)cc3)n2)[nH]n1", "target": "RPS6KA1 (Homo sapiens, UniProt Q15418)", "test": "kinase activity, KinaseProfiler", "conditions": "0.03 µM, species human", "how to read": "relative to: control", "remaining activity [%]": 96}
{"SMILES": "COc1cc(N2CCN(C)CC2)ccc1Nc1nc(N)n(C(=O)NCc2c(Cl)cccc2Cl)n1", "target": "PLK2 (Homo sapiens, UniProt Q9NYY3)", "test": "enzyme activity", "conditions": "10 µM", "how to read": "relative to: control", "remaining activity [%]": 24}
{"SMILES": "C=CC(=O)N1CCC([C@@H]2CCNc3c(C(N)=O)c(-c4ccc(Oc5ccccc5)cc4)nn32)CC1", "target": "LCK", "test": "kinase activity, inhibitor, HotSpot radiometric", "conditions": "100 nM, together with: ATP 10 µM", "remaining activity [%]": "56.7 ± 0.5"}
{"SMILES": "O=C(O)c1ccc(Nc2ncc3c(n2)-c2ccc(Cl)cc2C(c2c(F)cccc2F)=NC3)cc1", "target": "human TBK1(h)", "test": "kinase activity", "conditions": "1 µM", "remaining activity [%]": 100}
{"SMILES": "O=C(Nc1ccc2c(c1)CCC2)Nc1ccc(Cl)c(C(F)(F)F)c1", "target": "spsB", "test": "peptidase activity, activator, FRET peptide cleavage", "system": "Staphylococcus aureus, membranes", "conditions": "10 µM", "how to read": "relative to: DMSO", "remaining activity [%]": 123}
{"SMILES": "COc1cc(O)c(CC=C(C)C)c(O)c1C(=O)/C=C/c1ccc(O)cc1", "target": "Thyroxine 5-deiodinase (DIO3, Homo sapiens, UniProt P55073, Y257F)", "conditions": "200 µM, 0.1667 h, together with: T3", "how to read": "relative to: DMSO", "remaining activity [%]": 0.394}
{"SMILES": "C=CC(=O)N1CCC[C@@H](n2nc(-c3ccc(Oc4ccccc4)cc3)c3c(N)ncnc32)C1", "target": "Insulin-like growth factor-binding protein 5 (Homo sapiens, UniProt P24593)", "conditions": "0.1 µM", "remaining activity [%]": 134}
{"SMILES": "COc1cc(NC(=O)Nc2ccc(Cl)c(C(F)(F)F)c2)cc(OC)c1OC", "target": "spsB", "test": "peptidase activity, activator, FRET peptide cleavage", "system": "Staphylococcus aureus, membranes", "conditions": "50 µM", "how to read": "relative to: DMSO", "remaining activity [%]": 170}
{"SMILES": "CNc1ncc2c(/C=C/C(=O)N3CCC(OC)CC3)nn(Cc3cccc(C(F)(F)F)c3)c2n1", "target": "MAP4K2 (Homo sapiens, UniProt Q12851)", "test": "kinase activity, inhibitor", "conditions": "1 µM", "how to read": "relative to: untreated control", "remaining activity [%]": 80}
{"SMILES": "COc1cc(Nc2ncc3c(n2)-c2ccc(Cl)cc2C(c2c(F)cccc2OC)=NC3)ccc1C(=O)O", "target": "CHEK1", "test": "kinase activity", "conditions": "1 µM", "remaining activity [%]": 83}
{"SMILES": "CCN(CC)CCNC(=O)c1c(C)[nH]c(/C=C2\\C(=O)Nc3ccc(Cl)cc32)c1C", "target": "TRPM8", "test": "antagonist", "system": "HEK293", "conditions": "5 µM", "how to read": "relative to: control", "remaining activity [%]": "94.3 ± 6.71"}
{"SMILES": "COc1ccc(F)cc1C(=O)NCc1ccc(-c2nn([C@@H](C)C(F)(F)F)c(N)c2C(N)=O)cc1", "target": "LCK", "test": "kinase activity, inhibitor, HotSpot radiometric", "conditions": "1000 nM, together with: ATP at Km", "remaining activity [%]": "63.2 ± 3.8"}
{"SMILES": "O=C1C(Cl)=C(N2C(=O)CCC2=O)C(=O)c2ccccc21", "target": "TRPM8", "test": "antagonist", "system": "HEK293", "conditions": "5 µM", "how to read": "relative to: control", "remaining activity [%]": "103 ± 11.5"}
{"SMILES": "O=C(Nc1ccc(N2CCOCC2)cc1)Nc1ccc(Cl)c(C(F)(F)F)c1", "target": "spsB", "test": "peptidase activity, activator, FRET peptide cleavage", "system": "Staphylococcus aureus, membranes", "conditions": "10 µM", "how to read": "relative to: DMSO", "remaining activity [%]": 102}
{"SMILES": "COc1cc(OC)c(/C=C2/C(=O)Nc3ccccc32)c(OC)c1", "target": "TRPM8", "test": "antagonist", "system": "HEK293", "conditions": "5 µM", "remaining activity [%]": "46.9 ± 8.32"}
{"SMILES": "CCOc1cc(N2CCN(C)CC2)ccc1Nc1nc(N)n(C(=O)NCc2ccccc2S(=O)(=O)C(C)C)n1", "target": "ERN1 (Homo sapiens, UniProt O75460)", "test": "enzyme activity", "conditions": "10 µM", "how to read": "relative to: control", "remaining activity [%]": 14}
{"SMILES": "C=CC(=O)N1CCC[C@@H](n2nc(-c3ccc(Oc4ccccc4)cc3)c3c(N)ncnc32)C1", "target": "CAMKK2", "test": "kinase activity, inhibitor, HotSpot radiometric", "conditions": "100 nM, together with: ATP 10 µM", "remaining activity [%]": "102.9 ± 0.6"}
{"SMILES": "O=C(NC1CCC1)c1ccc2nc(-c3cccc(NS(=O)(=O)NCCN4CCCCC4)c3)cn2c1", "target": "FLT3 (Homo sapiens, UniProt P36888, N841I)", "test": "enzyme activity", "conditions": "10 µM", "remaining activity [%]": 58}
{"SMILES": "COc1cc(-c2cncc3c2CN(C)Cc2cc(N4CCNCC4)ccc2-3)cc(OC)c1OC", "target": "MYLK2", "test": "kinase activity", "conditions": "1 µM, human enzyme, together with: ATP 10 µM", "how to read": "relative to: DMSO control", "remaining activity [%]": 105}
{"SMILES": "CC(C)[C@H](CO)Nc1nc(Nc2cccc(Cl)c2)c2ncn(C(C)C)c2n1", "target": "TRPM8", "test": "antagonist", "system": "HEK293", "conditions": "5 µM", "how to read": "relative to: control", "remaining activity [%]": "98.9 ± 9.57"}
{"SMILES": "O=C(Nc1ccc(Cl)c(C(F)(F)F)c1)N1CCC(F)(F)CC1", "target": "spsB", "test": "peptidase activity, activator, FRET peptide cleavage", "system": "Staphylococcus aureus, membranes", "conditions": "50 µM", "how to read": "relative to: DMSO", "remaining activity [%]": 125}
{"SMILES": "COc1cc(N2CCN(C)CC2)ccc1Nc1nc(N)n(C(=S)NCc2c(Cl)cccc2Cl)n1", "target": "MYLK2", "test": "enzyme activity", "conditions": "10 µM", "how to read": "relative to: control", "remaining activity [%]": 15}
{"SMILES": "O=C(Cc1ccc(Cl)c(C(F)(F)F)c1)Nc1ccc2c(c1)OC(F)(F)O2", "target": "spsB", "test": "peptidase activity, activator, FRET peptide cleavage", "system": "Staphylococcus aureus, membranes", "conditions": "50 µM", "how to read": "relative to: DMSO", "remaining activity [%]": 143}
{"SMILES": "CCN(CCO)CCCC(C)Nc1ccnc2cc(Cl)ccc12 (stereo not drawn)", "target": "Potassium voltage-gated channel subfamily KQT member 1, with KCNE1 (KCNQ1, Homo sapiens, UniProt P51787)", "test": "IKs current, patch clamp", "system": "HEK293", "conditions": "30 µM", "how to read": "relative to: pre-drug current", "remaining activity [%]": 96.4}
{"SMILES": "CNC(=O)c1ccc(NC(=O)Nc2ccc(Cl)c(C(F)(F)F)c2)cc1", "target": "spsB", "test": "peptidase activity, activator, FRET peptide cleavage", "system": "Staphylococcus aureus, membranes", "conditions": "10 µM", "how to read": "relative to: DMSO", "remaining activity [%]": 111}
{"SMILES": "COc1cc(F)ccc1-c1ncnc(Nc2cccc(C[S@](C)(=N)=O)c2)n1", "target": "LCK", "test": "kinase activity", "conditions": "10 µM, together with: 10 µM ATP", "remaining activity [%]": 51}
{"SMILES": "CC(C)N(CCC(=O)c1ccc2ccccc2c1)Cc1ccccc1", "target": "TRPM8", "test": "antagonist", "system": "HEK293", "conditions": "5 µM", "how to read": "relative to: control", "remaining activity [%]": "101 ± 6.68"}
{"SMILES": "O=C(Nc1ccc(Cl)c(C(F)(F)F)c1)N1CCc2ccccc2C1", "target": "spsB", "test": "peptidase activity, activator, FRET peptide cleavage", "system": "Staphylococcus aureus, membranes", "conditions": "10 µM", "how to read": "relative to: DMSO", "remaining activity [%]": 116}
